Experimental data of several laboratories.
Lines come from different studies, so protocols differ. “And” joins repeats or separate records; there may be more than shown. Numbers after ± are the reported error.
Aryl hydrocarbon receptor: Aryl hydrocarbon receptor (Danio rerio, UniProt Q9YGV3)
HTT: Huntingtin (HTT, Homo sapiens, UniProt P42858)
TOP2A: DNA topoisomerase 2-alpha (TOP2A, Homo sapiens, UniProt P11388)
ABL1 T315I: Tyrosine-protein kinase ABL1 (ABL1, Homo sapiens, UniProt P00519, T315I)
SET: Protein SET (SET, Homo sapiens, UniProt Q01105)
NF-kappa-B inhibitor alpha: NF-kappa-B inhibitor alpha (Homo sapiens, UniProt P25963)

NCC(=O)O  number of binding sites (Lysozyme C (LYZ, Gallus gallus, UniProt P00698); intrinsic fluorescence; concentration not given, pH 6.9, 25 °C, lysozyme 10 µM): 0.76 ± 0.05
Cc1ccc(Cn2nc3c4ccccc4n(Cc4ccc(-c5cnn(C)c5)cc4F)cc-3c2=O)c(C)c1  maximal ACh response (CHRM1 (Homo sapiens, UniProt P11229); calcium mobilization, positive allosteric modulator; CHO-K1 cells; 30 µM, with: submaximal acetylcholine): 74%
Nc1ccc2ccc3cccc4ccc1c2c34  fold change (Aryl hydrocarbon receptor; reporter gene, agonist, luciferase reporter; ZF-4; 3333.33 µM; relative to: vehicle control): 1.7
NCCS(=O)(=O)O  normalised MST signal (SLC6A6 (Homo sapiens, UniProt P31641, Y138A); binding, microscale thermophoresis; 31.3 µM, room temperature, with: 50 nM labelled protein; higher = more binding): -0.0448
NC/C(=C\F)COc1cccc(Cn2c(=S)[nH]c(=O)c3[nH]cnc32)c1  LDL lipid peroxidation (Myeloperoxidase (MPO, Homo sapiens, UniProt P05164); inhibitor, cholesteryl ester hydroperoxide; 0.00023 µM; relative to: control): 105% and 96.3% and 87.4%
C[C@@H]1CCN(c2nccc(-c3cnn4ncccc34)n2)C1  remaining binding (ABL1 (Homo sapiens, UniProt P00519, H396P); KINOMEscan; 1 µM): 70%
COC(=O)c1cccc(C(=O)c2c[nH]c3c4c(ccc23)CCC4)n1  Emax (AHR (Homo sapiens, UniProt P35869); reporter gene, agonist, XRE luciferase; HepG2; relative to: ITE): 55 ± 3%
CCCCc1cn2c(N)nc3ccccc3c2n1  EC50 (TLR8 (Homo sapiens, UniProt Q9NR97); reporter gene, agonist, NF-κB reporter; HEK-Blue TLR8): inactive
Nc1ncnc2c1ncn2[C@@H]1O[C@H](COP(=O)(O)CP(=O)(O)OP(=O)(O)O)[C@@H](O)[C@H]1O  specific binding (P2X purinoceptor 1 (P2RX1, Homo sapiens, UniProt P51575, K136A); saturation binding; HEK293; 13 nM): 906 CCPM and 739 CCPM
O=C(COP(=O)(O)O)[C@@H](O)[C@H](O)[C@H](O)COP(=O)(O)O  enzyme activity (PMM2 (Homo sapiens, UniProt O15305); 0.005 mM, unit not given; relative to: activity at 0 mM set to 100): 91.2 and 98.8 and 98.6
Cc1ccc(N2CC(C(N)=O)CC2=O)cc1 (stereo not shown)  log fold enrichment (HTT; binding, affinity selection mass spectrometry; relative to: other proteins in batch): -0.0404
Cc1ccc(-c2cc(C(=O)NCCN(C)C)c3cc(Br)ccc3n2)o1  Hill slope (TPR (Trypanosoma brucei brucei, UniProt P39051); enzyme activity, inhibitor, DTNB-coupled colourimetric; Trypanosoma brucei): 1.13 ± 0.05
CN(C)C(=O)C(CCN1CCC(O)(c2ccc(Cl)cc2)CC1)(c1ccccc1)c1ccccc1  V1/2 (Calcium-activated potassium channel subunit alpha-1, with LRRC26 γ1 subunit (KCNMA1, Homo sapiens, UniProt Q12791); ion current, inside-out patch, fit of G-V curve; BKα/γ1 channel; 1 µM, with: nominally 0 Ca2+): 8.36 mV
O=c1nc(SCc2ccc(C(F)(F)F)cc2)nc(SCc2csc3ccc(Cl)cc23)[nH]1  decatenated DNA (TOP2A; decatenation; 1.95 µM, replicate 1): 0%
Nc1nc2c(ncn2[C@@H]2O[C@H](COP(=O)(O)O)[C@@H](O)[C@H]2O)c(=O)[nH]1  -TΔS (GUK1 (Homo sapiens, UniProt Q16774, S13A); binding, ITC): 0.532 kcal/mol
CCOc1ccc(NC(=O)O[C@H](Cn2nc(C(C)C)cc2C(C)C)C(C)C)cc1  ACh-evoked current (Neuronal acetylcholine receptor; alpha4/beta2 (Homo sapiens, UniProt P17787+P43681); two-electrode voltage clamp; Xenopus oocytes; 10 µM, low-sensitivity stoichiometry, with: ACh 10 µM; relative to: ACh alone): 120 ± 19%
Cc1cccc2c1ccc1cc(C(C)C)ccc12  fold change (Aryl hydrocarbon receptor; reporter gene, agonist, luciferase reporter; ZF-4; 10000 µM; relative to: vehicle control): 0.765
Cc1ccc(NC(=O)NCc2ccc3c(c2)CN(C2CCC(=O)NC2=O)C3=O)cc1Cl (stereo not shown)  Dmax (Sal-like protein 4 (SALL4, Homo sapiens, UniProt Q9UJQ4); degrader, immunofluorescence; C33A): 71 ± 8%
CCCCCCCCCCCCC/C=C/[C@@H](O)[C@H](CO)NC(=O)CCCCCCCCCCCCCCC  lipid fraction bound (Protein SET (SET, Homo sapiens, UniProt Q01105, Y135C); lipid binding, GFP pull-down LC-MS/MS; A549 overexpressing GFP-tagged protein; relative to: eluate plus flow-through): 5.5%
CCOC(=O)C(C)c1n[nH]c2nc(N)[nH]c(=O)c2c1=O (stereo not shown)  melting temperature shift (folP (Bacteria, UniProt P0AC13); CETSA HiBiT; Escherichia coli, whole cells; concentration not given; relative to: DMSO): 1.65 °C
CN(C)c1ncc(F)c(-c2cnn3ncccc23)n1  remaining binding (ABL1 T315I; KINOMEscan; 1 µM; relative to: control): 68%
CN1C(=O)/C(=C2\Nc3ccccc3\C2=N/O)c2ccc(Br)cc21  fold change (Aryl hydrocarbon receptor; reporter gene, agonist, luciferase reporter; ZF-4; 20 µM; relative to: vehicle control): 23.9
CCC1(O)CCCN(C(=O)c2ccc(-c3ccc(F)c(NC(=O)CCl)c3)cc2)C1 (stereo not shown)  protein adduct (DNA dC->dU-editing enzyme APOBEC-3B, C-terminal domain (Homo sapiens, UniProt Q9UH17); covalent modifier, intact protein mass spectrometry, item: adduct +26104 Da; 25 µM, 1 h, 1-fold molar excess): 0%
CCCCCCCCCCCCC/C=C/[C@@H](O)[C@H](CO)NC(=O)CCCCCCCCCCCCCCCCCCCCCCC  bound endogenous lipid (SET; lipid binding, GFP pull-down LC-MS/MS; A549 overexpressing GFP-tagged protein; unit not given; relative to: vector-transfected cells): 2.8
CC1(C)NC(=O)c2[nH]c3c(Cl)c(Cl)ccc3c2C1C#N (stereo not shown)  ΔTm (RPS6KA2 (Homo sapiens, UniProt Q15349); thermal shift; 10 µM, 2 µM protein; higher = stronger binding): 0.9 °C
O=C(O)C1=CCNCC1  maximal response (GABA-A receptor; alpha-1/beta-2/gamma-2 (Rattus norvegicus, UniProt P18508+P62813+P63138); membrane potential, agonist, QP-DHM fluorescence; HEK293 expressing GABAA; relative to: GABA): 64%
N#Cc1ccc(C[C@@H](NC(=O)c2cc3ccccc3[nH]2)C(=O)N2CCc3ccccc32)cc1  activity (FPR2 (Homo sapiens, UniProt P25090); cell-based; concentration not given): inactive
CCN1CCN(c2cc(N3CCN(CC)CC3)nc(NCCNc3ccnc4cc(Cl)ccc34)n2)CC1  activation (NR1H3 (Homo sapiens, UniProt Q13133); reporter gene, Gal4 hybrid reporter; 20 µM; relative to: vehicle): 1.61 fold
C=CC(=O)N1CCC[C@@H](n2nc(-c3ccc(Oc4ccccc4)cc3)c3c(N)ncnc32)C1  remaining activity (FGFR4 (Homo sapiens, UniProt P22455); 10 µM): 59.9%
O=C1C=CC(=O)c2c1ccc1ccccc21  fold change (Aryl hydrocarbon receptor; reporter gene, agonist, luciferase reporter; ZF-4; 123.5 µM; relative to: vehicle control): 14
CC[C@H](C)[C@H](NC(=O)[C@H](CO)NC(=O)[C@H](CCCCN)NC(=O)[C@H](Cc1ccccc1)NC(=O)[C@@H](NC(=O)[C@H](CCC(=O)O)NC(=O)[C@H](Cc1ccc(O)cc1)NC(=O)[C@@H](NC(=O)[C@H](CCCNC(=N)N)NC(=O)[C@H](CCCCN)NC(=O)[C@H](CCCNC(=N)N)NC(=O)[C@H](CCCCN)NC(=O)[C@H](CCC(=O)O)NC(=O)[C@H](CCC(=O)O)NC(=O)[C@@H](NC(=O)[C@H](CCCNC(=N)N)NC(=O)[C@H](Cc1c[nH]cn1)NC(=O)[C@H](CCCNC(=N)N)NC(=O)[C@H](CC(=O)O)NC(=O)[C@H](CC(=O)O)NC(=O)[C@@H](NC(=O)[C@H](CC(=O)O)NC(=O)[C@@H]1CCCN1C(=O)[C@@H](N)CC(C)C)[C@@H](C)O)[C@@H](C)CC)[C@@H](C)O)[C@@H](C)O)C(=O)N[C@@H](C)C(=O)N[C@@H](CCCCN)C(=O)N[C@@H](CCCCN)C(=O)N[C@@H](CO)C(=O)N1CCC[C@H]1C(=O)N[C@@H](Cc1ccccc1)C(=O)N[C@@H](CC(N)=O)C(=O)NCC(=O)N1CCC[C@H]1C(=O)O  -TΔS (NF-kappa-B inhibitor alpha; binding, ITC; pH 7.5, 293 K, 50 mM NaCl): -5.1 ± 0.04 kcal/mol
O=c1c(Oc2ccccc2)c(C(F)(F)F)oc2cc(O)ccc12  E3 ligase activity (Cullin-1, C-terminal domain with ROC1 (Homo sapiens, UniProt Q13616); inhibitor; up to 80 µM): no inhibition
O=c1nc(SCc2cc(F)cc(C(F)(F)F)c2)nc(SCc2ccc3sccc3c2)[nH]1  mean decatenated DNA (TOP2A; decatenation; 125 µM): 1.73%
COc1ccccc1C(=O)C#Cc1ccc(F)c(F)c1  binding (mvfR (Pseudomonas aeruginosa, UniProt Q9I4X0); receptor binding; concentration not given, 1.5 h, with: PQS at 1:1 ratio; relative to: control): 87%
Cc1cnn2ncc(-c3ccnc(N(C)C)n3)c2c1  remaining binding (ABL1 T315I; KINOMEscan; 1 µM): 67%
N[C@@H](CC(=O)O)C(=O)O  Km (N-acetylaspartate synthetase (NAT8L, Homo sapiens, UniProt Q8N9F0); substrate, CPM fluorescence; 30 min): 237 µM
C=CC(=O)N1CCC(COCC(=O)N2CCN(c3nc(-c4cnc(N)nc4C(F)F)nc(N4CCOC[C@@H]4C)n3)CC2)CC1  remaining binding (MAP3K5 (Homo sapiens, UniProt Q99683); KINOMEscan; 1 µM): 97%
CCCCCCCCCCCCC/C=C/[C@@H](O)[C@H](CO)NC(=O)CCCCCCCCCCCCC  bound endogenous lipid (SET; lipid binding, GFP pull-down LC-MS/MS; A549 overexpressing GFP-tagged protein; ER-targeted construct, unit not given; relative to: vector-transfected cells): 0.7
O=[N+]([O-])c1cc(C(F)(F)F)ccc1NCc1ccsc1  koff (Endothelial PAS domain-containing protein 1, PAS-B domain (EPAS1, Homo sapiens, UniProt Q99814, N288Q); ZZ-exchange NMR; 25 °C): 0.79 ± 0.06 s⁻¹
CC[C@H](C)[C@H](NC(=O)[C@H](CCCNC(=N)N)NC(=O)[C@H](Cc1c[nH]cn1)NC(=O)[C@H](CCCNC(=N)N)NC(=O)[C@H](CC(=O)O)NC(=O)[C@H](CC(=O)O)NC(=O)[C@@H](NC(=O)[C@H](CC(=O)O)NC(=O)[C@@H]1CCCN1C(=O)[C@@H](N)CC(C)C)[C@@H](C)O)C(=O)N[C@@H](CCC(=O)O)C(=O)N[C@@H](CCC(=O)O)C(=O)N[C@@H](CCCCN)C(=O)N[C@@H](CCCNC(=N)N)C(=O)N[C@@H](CCCCN)C(=O)N[C@@H](CCCNC(=N)N)C(=O)N[C@H](C(=O)N[C@@H](Cc1ccc(O)cc1)C(=O)N[C@@H](CCC(=O)O)C(=O)N[C@H](C(=O)N[C@@H](Cc1ccccc1)C(=O)N[C@@H](CCCCN)C(=O)N[C@@H](CO)C(=O)N[C@H](C(=O)N[C@@H](CCSC)C(=O)N[C@@H](CCCCN)C(=O)N[C@@H](CCCCN)C(=O)N[C@@H](CO)C(=O)N1CCC[C@H]1C(=O)N[C@@H](Cc1ccccc1)C(=O)N[C@@H](CC(N)=O)C(=O)NCC(=O)N1CCC[C@H]1C(=O)O)[C@@H](C)CC)[C@@H](C)O)[C@@H](C)O  ΔG (NF-kappa-B inhibitor alpha; binding, ITC; 293 K, 150 mM NaCl): -8 ± 0.8 kcal/mol
CC1(C)CC2(C)OC(=O)NC2(C)c2ccccc21 (stereo not shown)  fold enrichment (HTT; binding, affinity selection mass spectrometry; relative to: other proteins in batch): 1.75
O=C(O)c1ccc(Nc2ncc3c(n2)-c2ccc(Cl)cc2C(c2c(F)cccc2F)=NC3)cc1  remaining activity (human cKit(h); kinase activity; 1 µM): 91%
CCN(CCO)CCCC(C)Nc1ccnc2cc(Cl)ccc12 (stereo not shown)  inactivation slope factor (SCN5A (Homo sapiens, UniProt Q14524); sodium current, whole-cell patch clamp; 10 µM, without ATX-II): 5.85 mV/e-fold and 5.88 mV/e-fold and 5.29 mV/e-fold
